# Experimental data pooled from the literature.
# Each numbered part is a random draw from the data of one study; scales do not carry over between parts. Substitutions count along the parent as printed.

# Set 1
# Target: Ras GTPase-activating protein-binding protein 1, RRM domain (G3BP1, Homo sapiens, UniProt Q13283)
# UniProt Q13283, sequence (whole entry, looked up): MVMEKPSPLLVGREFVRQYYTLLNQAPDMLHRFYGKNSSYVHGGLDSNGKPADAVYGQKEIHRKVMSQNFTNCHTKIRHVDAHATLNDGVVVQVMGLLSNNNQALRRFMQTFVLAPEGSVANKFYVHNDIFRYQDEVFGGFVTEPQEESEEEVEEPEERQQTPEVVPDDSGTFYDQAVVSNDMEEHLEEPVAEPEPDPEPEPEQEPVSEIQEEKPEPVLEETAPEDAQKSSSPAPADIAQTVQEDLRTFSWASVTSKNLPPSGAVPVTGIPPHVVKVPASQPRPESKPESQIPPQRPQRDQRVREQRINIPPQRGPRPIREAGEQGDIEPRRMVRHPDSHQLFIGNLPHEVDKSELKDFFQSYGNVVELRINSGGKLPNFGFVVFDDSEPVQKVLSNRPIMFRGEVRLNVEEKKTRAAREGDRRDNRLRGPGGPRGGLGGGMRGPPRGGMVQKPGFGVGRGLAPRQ
# Technique: RNA Bind-n-Seq
# Form: RNA
# Medium: in vitro
# Concentration: 1 µM
# Setting: whole 134-nt RNA, ends assumed
# With: 150 mM KCl
# Relative to: input library
# Direction: higher = stronger binding
# Shared flanks, not repeated: GGGAGUUCUACAGUCCGACGAUC … UGGAAUUCUCGGGUGUCAAGG
Sequence,log2 enrichment
UGUGAGCUGACUUUUUGGAUCAACUUUACUUUUCCCUUCUUUUUAGGCAAUUGAAGAUGAAGGUGGUAAUCCUGACGAAAUUGAAAUUAC,-0.0721
CACAGACAACACGCACCCACACAGGCACAGAGGGAAGGGGUUGGGAUGGGGACAGGGUGCACAGCAGGGCGGGGUAGGACCCCAGCCCCU,-0.0634
CAAGUCCUGUGCUACACAUCGUAUGUACCGAAUCGGUUUGGUUUUUGGUUUUUGGAAAGUAUUAUGUUACGCCGUUCGGAUCUGCACUUC,-0.188
AAGUCCUGUGCUACACAUCGUAUGUACCGAAUCGGGUUUGGGUUUUUGGGAAAGGGAAAGUAUUAUGUUACGCCGUUCGGAUCUGCACUU,0.665
GCAGGAAGUAAAAACAAAUGGAAAUGCUUCGGAUAGUGGCAGGGGUGGGGGUUGCUAAGGAAAGGGUGGGAUGGGAGUGGGUUAAGAGUU,0.238
CACAGACAACACGCACCCACACAGACACAGAGGGAAGGGGUUGGGAUGGGGACAGGGUGCACAGCAGGGCGGGGUUGGACCCCAGCCCCU,-0.306

# Set 2
# Target: RNA binding protein fox-1 homolog 2, RRM domain, GST-SBP tag (RBFOX2, Homo sapiens, UniProt O43251-10, residues 100-194)
# Technique: RNA Bind-n-Seq
# Form: RNA
# Medium: in vitro
# Concentration: 365 nM
# Setting: natural RNA segment, single round, ends assumed
# Relative to: no-protein control
# Direction: higher = stronger binding
# Shared flanks, not repeated: GGGAGUUCUACAGUCCGACGAUC … UGGAAUUCUCGGGUGCCAA
# Residues (chain): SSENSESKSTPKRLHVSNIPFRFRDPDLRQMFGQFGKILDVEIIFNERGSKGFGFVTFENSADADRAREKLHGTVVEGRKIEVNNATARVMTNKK
Sequence,RBNS enrichment (R)
UGCAGUUUGCCAACUUGUCUGCGUGCCAGCCAGCCACAGGGUGAUUCCAGAAGAGAGCUAUUUAAACUGGUGGACAUGGGAUUGGAGUCUGGUGUUAGAUUGUUUUGAAU,0.581
UGGAGCCACCUGGAAGCCACUCCAAUUUGGUGGCACAGGACAGGUUUCCAAGAUGUCACGAGAAAAGCCCCAGAUGUGUACAGCACUCUAAGCAUUAACAGUCUCCCAGA,0.317
AUCUAUUUUUUUUUUUGACAGAGUCUUGCUCUGUCACCCAGGCUGGCGUACAGUGGUACGAUCUCAGCUCACUGCAUCCUCUGCCUCCCCCAGUUCAAGUGAUUCUUCUG,1.69
GAAGCAAAAGUAAUUUUUCUUGACAUUUGAGGACCUUCCUGAGGCUUCUAAAGUGUUCAUCCUGAUCACCUGAAGGGUGUGAUUUUAGCAGAGCUGAGAGUGGCUGGUGG,0.304
AGACCAGGAGAAGCCACACCGUAACUCAGUCUGAGUCCAAAGCCCGAGAAGCCAGGGGCCACCCUGUGAGUCCCAGCAUCCAAAGCCCCGAGAACGAGGAAGAUGGAUGU,0.354
AGGUACCACUUCAUACAGUGAAAAGUGGAAUCUACAGAUAUAAAGCAGUUGAGGAAAAAAGACAACAUAGGAGUUAUUAAUGUCAAUACCCAUCAACAUAAUCACUCUGA,0.43
UCAUCUAGGUUUAUAGUUCAGUAGCUUAGGCAAGGCACACACUGCUCAUCUCCGCUUUUUAGGGUCAGAGGAACACAAGCUCAUGUUCUGAGUGAAGGGCGUACACUGGC,0.23

# Set 3
# Target: ABI1, truncated, D143A, DHFR fusion (Arabidopsis thaliana)
# Technique: DHFR PCA, deep sequencing
# Medium: yeast
# Setting: methotrexate growth selection, single substitutions
# With: (+)-ABA 2500 µM
# Relative to: wild-type fitted maximum
# Direction: higher = stronger binding
# Parent: PYL1, truncated, DHFR fusion (Arabidopsis thaliana); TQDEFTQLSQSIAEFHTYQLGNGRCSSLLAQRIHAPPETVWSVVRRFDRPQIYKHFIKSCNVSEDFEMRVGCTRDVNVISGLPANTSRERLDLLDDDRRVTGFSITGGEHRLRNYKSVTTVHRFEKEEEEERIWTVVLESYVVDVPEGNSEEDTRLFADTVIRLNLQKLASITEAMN
Substitution,relative binding score [%]
A13D,91.8
E139D,71.6
V142N,88.6

# Mixed results
Molecule,target,assay,system,setting,scale,quantity,result
"PhoQ, residues 284 288 289 292 302 303 SLCLSL","PhoP, residues 12 14 15 18 19 LWHCS (Escherichia coli, UniProt P23836)","Sort-seq, measured: YFP reporter",E. coli,"PhoQ-PhoP variant library, with: 10 µM Mg2+","relative to: high Mg2+ state, higher = stronger signaling",fold induction,2.79

# For quick reference, copied from above (set 2):
Sequence,RBNS enrichment (R)
UGCAGUUUGCCAACUUGUCUGCGUGCCAGCCAGCCACAGGGUGAUUCCAGAAGAGAGCUAUUUAAACUGGUGGACAUGGGAUUGGAGUCUGGUGUUAGAUUGUUUUGAAU,0.581
UCAUCUAGGUUUAUAGUUCAGUAGCUUAGGCAAGGCACACACUGCUCAUCUCCGCUUUUUAGGGUCAGAGGAACACAAGCUCAUGUUCUGAGUGAAGGGCGUACACUGGC,0.23
